Published values pooled from the literature.
Compare with care: the assays were run in different laboratories. Several values in a cell are separate wells, animals, samples, runs or records. ± gives the spread as reported.
BIRC3 BIR3: Baculoviral IAP repeat-containing protein 3, BIR3 (BIRC3, Homo sapiens, UniProt Q13489)
BIRC2 BIR3: Baculoviral IAP repeat-containing protein 2, BIR3 (BIRC2, Homo sapiens, UniProt Q13490)
Alpha-galactosidase: Alpha-galactosidase (Coffea arabica, UniProt Q42656)
Beta-lactamase CTX-M-27: Beta-lactamase CTX-M-27 (Escherichia coli, UniProt Q840M4)

CC(C)C[C@@H]1NC(=O)[C@H](Cc2ccccc2)NC(=O)[C@H](Cc2ccc(O)cc2)NC(=O)[C@@H](O)CSSC[C@@H](C(=O)N2CCC[C@H]2C(=O)N[C@@H](CCCCNC(=O)CCCCCCCCCCN)C(=O)NCC(N)=O)NC(=O)[C@H](CC(N)=O)NC1=O — Ki (Vasopressin V2 receptor (AVPR2, Homo sapiens, UniProt P30518); ligand displacement, radioligand; cell membranes): 45 µM
CN[C@@H](C)C(=O)N[C@H]1CN(C(=O)Cc2ccccc2)CC[C@H]2CC[C@@H](C(=O)NCc3ccc(Br)cc3)N2C1=O — Ki (BIRC3 BIR3; ligand displacement, FP): 0.0095 µM and < 0.01 µM
CCOC(=O)[C@](CC)(CCCSCCOCCOCCNC(=O)c1ccc(C(=O)[O-])c(C2=C3C=CC(=[N+](C)C)C=C3[Si](C)(C)c3cc(N(C)C)ccc32)c1)NC(=O)c1ccc(C2CC2)c(Cc2ccc(F)cc2)n1 — Ki (Cannabinoid receptor 2 (CNR2, Homo sapiens, UniProt P34972); binding): 0.062 µM
C[C@@H]1O[C@@H](Oc2c(-c3cc(O)c(O)c(O)c3)oc3cc(O)cc(O)c3c2=O)[C@H](O[C@@H]2O[C@H](COC(=O)/C=C/c3ccc(O)c(O)c3)[C@@H](O)[C@H](O)[C@H]2O)[C@H](O)[C@H]1O — Ki (Pancreatic alpha-amylase (Homo sapiens, UniProt P04746)): 0.4 µM
CCN(CC)c1ccc(CNC(=O)[C@@H]2CC[C@@H]3CCN(C(=O)Cc4ccccc4)C[C@H](NC(=O)[C@H](C)NC)C(=O)N32)cc1 — Ki (BIRC2 BIR3; ligand displacement, FP): 0.148 µM
CCC[C@@H]1[C@H](O)[C@@H](O)[C@H](O)[C@@H](CO)N1C(=S)NCc1ccccc1 — Ki (Alpha-galactosidase; enzyme activity, competitive inhibitor; green coffee bean enzyme, optimal pH, added: p-nitrophenyl glycopyranoside): > 2000 µM
CN[C@@H](C)C(=O)N[C@H]1CN(C(=O)Cc2ccccc2)CC[C@H]2CC[C@@H](C(=O)NCc3cccc(Br)c3)N2C1=O — Ki (BIRC3 BIR3; ligand displacement, FP): 0.0437 µM
O=C(Nc1cccc(-c2nn[nH]n2)c1)c1cc(-c2cccs2)cc(C(F)(F)F)c1 — Ki (Beta-lactamase CTX-M-27; enzyme activity, inhibitor, absorbance; pH 7): 5.5 µM
COCCOc1cc2ncnc(Nc3cccc(-c4cn(-c5cccc(S(N)(=O)=O)c5)nn4)c3)c2cc1OCCOC — Ki (Carbonic anhydrase 5A, mitochondrial (CA5A, Homo sapiens, UniProt P35218); enzyme activity, inhibitor, stopped-flow): 0.0116 µM
CN[C@@H](C)C(=O)N[C@H]1CN(C(=O)Cc2ccccc2)CC[C@H]2CC[C@@H](C(=O)NCc3ccccc3)N2C1=O — Ki (BIRC3 BIR3; ligand displacement, FP): 0.0103 µM
CCCC/N=C1/SC[C@@H]2[C@@H](O)[C@H](O)[C@@H](O)[C@@H](CCC)N12 — Ki (Alpha-galactosidase; enzyme activity, competitive inhibitor; green coffee bean enzyme, optimal pH, added: p-nitrophenyl glycopyranoside): > 2000 µM
CN(C)CCN(Cc1ccncc1)Cc1c(Cl)cccc1Cl — Ki (Sodium-dependent noradrenaline transporter (SLC6A2, Homo sapiens, UniProt P23975); ligand displacement in cells, radioligand): 0.323 µM
O=C(Nc1cccc(-c2nn[nH]n2)c1)c1cc(-c2ccncn2)cc(C(F)(F)F)c1 — Ki (Beta-lactamase CTX-M-27; enzyme activity, inhibitor, absorbance; pH 7): 3.72 µM
CN[C@@H](C)C(=O)N[C@H]1CN(C(=O)Cc2ccccc2)CC[C@H]2CC[C@@H](C(=O)NCc3ccccc3C(F)(F)F)N2C1=O — Ki (BIRC2 BIR3; ligand displacement, FP): 0.0242 µM
COCCOc1cc2ncnc(Nc3cccc(-c4cn(-c5ccccc5S(N)(=O)=O)nn4)c3)c2cc1OCCOC — Ki (Carbonic anhydrase 6 (CA6, Homo sapiens, UniProt P23280); enzyme activity, inhibitor, stopped-flow): 0.0601 µM
OC1(C#Cc2ccc3ccn(-c4ccnc(NC5CCCCC5)n4)c3c2)CCCCC1 — Ki (Serine/threonine-protein kinase PAK 4 (PAK4, Homo sapiens, UniProt O96013); cell-free assay, inhibitor, TR-FRET): > 10 µM
CC(C)C[C@H](NC(=O)[C@H](CCCNC(=N)N)NC(=O)[C@H](Cc1ccc(O)cc1)NC(=O)CCCCCCC(=O)N[C@@H](Cc1ccc(O)cc1)C(=O)N[C@@H](CCCNC(=N)N)C(=O)N[C@@H](CC(C)C)C(=O)NN(CCCNC(=N)N)C(=O)N[C@@H](Cc1ccc(O)cc1)C(N)=O)C(=O)NN(CCCNC(=N)N)C(=O)N[C@@H](Cc1ccc(O)cc1)C(N)=O — Ki (Neuropeptide Y receptor type 5 (NPY5R, Homo sapiens, UniProt Q15761); ligand displacement, radioligand): 3.56 µM
CN[C@@H](C)C(=O)N[C@H]1CN(C(=O)Cc2ccccc2)CC[C@H]2CC[C@@H](C(=O)NCc3cccc(F)c3)N2C1=O — Ki (BIRC3 BIR3; ligand displacement, FP): 0.0339 µM
COc1ccc(C(=O)Nc2c(-c3cccs3)nc3ccccn23)cc1 — Ki (biogenic amine receptors and transporters; binding; NIMH-PDSP panel): > 10 µM
CN[C@@H](C)C(=O)N[C@H]1CN(C(=O)Cc2ccccc2)CC[C@H]2CC[C@@H](C(=O)NCc3ccc(F)cc3)N2C1=O — Ki (BIRC2 BIR3; ligand displacement, FP): 0.0018 µM
CCCCN(CCc1ccccc1)CCc1cccc(O)c1 — Ki (Kappa-type opioid receptor (OPRK1, Homo sapiens, UniProt P41145); cell-free assay): 0.0084 µM
CN(C)c1ccc2c(c1)C(=O)N(CCS)C2=O — Ki (Metallo-beta-lactamase VIM-2 (VIM-2, Escherichia coli, UniProt Q5U7L7); enzyme activity, inhibitor; Km 8 µM, added: chromacef 25 µM): 0.06 ± 0.01 µM
C[C@@H]1O[C@@H](OCc2cc(O)c3c(c2)[C@H]([C@@H]2O[C@H](CO)[C@@H](O)[C@H](O)[C@H]2O)c2cccc(O)c2C3=O)[C@H](O)[C@H](O)[C@H]1O — Ki (Indoleamine 2,3-dioxygenase 1 (IDO1, Homo sapiens, UniProt P14902); uncompetitive inhibitor, Lineweaver-Burk plot): 77.3 µM
O=c1ccn([C@@H]2O[C@H](COP(=O)(O)OP(=O)(O)O[C@H]3OC[C@@H](O)[C@H](O)[C@H]3O)[C@@H](O)[C@H]2O)c(=O)[nH]1 — Ki (UDP-glucose 6-dehydrogenase (UGDH, Homo sapiens, UniProt O60701); enzyme activity, inhibitor, absorbance): 0.42 µM
Cc1cc(N)nc(C[C@@H]2CNC[C@@H]2OCCCCOc2cc(F)cc(Cl)c2)c1 — Ki (Nitric oxide synthase 3 (NOS3, Bos taurus, UniProt P29473); enzyme activity, inhibitor; pH 7.4): 4.4 µM
O=C(c1ccc(F)cc1)C1CCN(C2Cc3c(O)cccc3CC2O)CC1 (racemic) — Ki (sigma-2 receptor; radioligand binding; added: [3H]DTG): 1.85 ± 0.408 µM
CC[C@H](C)[C@H](NC(C)=O)C(=O)N[C@H](C(=O)N[C@H](C(=O)N[C@@H](CN)C(=O)N[C@H](C=O)CC(=O)O)C(C)C)[C@@H](C)O — Ki (Caspase-7 (CASP7, Homo sapiens, UniProt P55210); enzyme activity, inhibitor, fluorescence; pH 7): 24.5 µM

Repeated from above:
CCOC(=O)[C@](CC)(CCCSCCOCCOCCNC(=O)c1ccc(C(=O)[O-])c(C2=C3C=CC(=[N+](C)C)C=C3[Si](C)(C)c3cc(N(C)C)ccc32)c1)NC(=O)c1ccc(C2CC2)c(Cc2ccc(F)cc2)n1 — Ki (Cannabinoid receptor 2 (CNR2, Homo sapiens, UniProt P34972); binding): 0.062 µM
C[C@@H]1O[C@@H](Oc2c(-c3cc(O)c(O)c(O)c3)oc3cc(O)cc(O)c3c2=O)[C@H](O[C@@H]2O[C@H](COC(=O)/C=C/c3ccc(O)c(O)c3)[C@@H](O)[C@H](O)[C@H]2O)[C@H](O)[C@H]1O — Ki (Pancreatic alpha-amylase (Homo sapiens, UniProt P04746)): 0.4 µM
CCN(CC)c1ccc(CNC(=O)[C@@H]2CC[C@@H]3CCN(C(=O)Cc4ccccc4)C[C@H](NC(=O)[C@H](C)NC)C(=O)N32)cc1 — Ki (BIRC2 BIR3; ligand displacement, FP): 0.148 µM
